Measured values gathered from unrelated publications.
Compare with care: the assays were run in different laboratories. Several values in a cell are separate wells, animals, samples, runs or records. ± gives the spread as reported. Ends that are not written are not given here.
rep main protease: Replicase polyprotein 1ab, main protease (rep, Severe acute respiratory syndrome coronavirus 2, UniProt P0DTD1)
Spike glycoprotein: Spike glycoprotein (Severe acute respiratory syndrome coronavirus 2, UniProt P0DTC2)

Molecule | target or system | test | test system | setting | scale | quantity | value
Cn1c(Cn2ccc(C(F)(F)F)c(Oc3cc(Cl)cc(C#N)c3)c2=O)n[nH]c1=O | HIV-1 | viral replication, single-round infection | RT mutant M184I |  |  | EC50 | 0.0006 ± 0.0002 µM
IGNYKLNTDHSSSSD | human CD4 T cells | AIM | peptide |  |  | responding donors | 15%
CC[C@H](OC(C)=O)C(C[C@H](C)NC)(c1ccccc1)c1ccccc1 | HeLa | Ebola VLP entry |  |  |  | maximal inhibition | 102%
EVTPSGTWLTY |  | AIM | peptide, CD8+ T cells from PBMC, human donors |  | relative to: positive over tested donors | frequency of responding donors | 33%
Cc1cc(/C=C/C#N)cc(C)c1Nc1nc(Nc2ccc(/C=C/C#N)cc2)ncc1N | HIV-1 | viral replication, single-round infection | RT mutant M184I |  |  | EC50 | 0.0004 ± 0.0001 µM
GsMTx4 | stretch-activated cation channel, rat | ion current, outside-out patch clamp | rat astrocytes | 500-ms pressure steps every 2 s, -50 mV |  | washout recovery time constant | 4.7 ± 1.7 s
NTVKSVGKFCLEASF | human CD4 T cells | AIM | peptide |  |  | responding donors | 8%
CCOP(=S)(OCC)Oc1nc(Cl)c(Cl)cc1Cl | rat CYP1A | ethoxyresorufin O-deethylation | liver microsomes | concentration not given |  | Vmax | 0.27 ± 0.09 nmol/min/mg protein
DAVNLLTNM |  | AIM | peptide, CD8+ T cells from PBMC, human donors | dose not given |  | response magnitude per positive donor | 108
Nc1ncnc2c([C@@H]3N[C@H](CO)[C@@H](O)[C@H]3O)c[nH]c12 | Marburg virus | viral RNA in cell lysate | HeLa, Musoke | 0.4 µM, 1 h |  | inhibition | 25.1%
Cc1ccc2nc(Cl)c3cc(C(=O)NCCCN4CCC(C)CC4)sc3c2c1 | SARS-CoV-2 | cytopathic effect | USA_WA1/2020 | round 2, 5-point |  | maximum response | 61.3%
CCCC(=O)OCSc1ccccc1C(=O)NCCC(N)=O | HIV-1 | viral replication | human PBMC, subtype G G3, CCR5-tropic clinical isolate |  |  | EC50 | 5.39 ± 4.09 µM
COc1cc2cc(c1)C(=O)NCCCC(=O)N[C@H]1CN(C(=O)c3cccc(-c4ccccc4OC)c3)CC[C@@H]1OCc1cccc(c1)O2 | Lassa mammarenavirus | viral replication | Huh-7 | concentration not given |  | Emax | 49.4%
EDFLEYHDVRVVLDF | human CD4 T cells | AIM | peptide |  |  | responding donors | 18%
C[C@H](NC(=O)Cc1cc(F)cc(F)c1)C(=O)N[C@H](C(=O)OC(C)(C)C)c1ccccc1 | rep main protease | reporter gene (Gaussia luciferase), inhibitor |  | 20 µM |  | inhibition | 1.84%
Cc1ccccc1C1(O)CCN(C(=O)c2cnn[nH]2)C1 (stereo not shown) | Lassa mammarenavirus | viral replication | Huh-7 | 10 µM, 72 h |  | remaining activity | 39%
COc1ccc2cc3[n+](cc2c1OC)CCc1cc2c(cc1-3)OCO2 | SARS-CoV-2 envelope protein |  | Vero C1008 | 10 µg/mL |  | inhibition | 50 ± 4.1%
COc1ccccc1Nc1nc(-c2sc(NC(C)=O)nc2C)cs1 | rep main protease | viral replication, mKate2 reporter | SARS-CoV-2 | 20 µM |  | inhibition | -1.56%
COc1ccc(-c2cn3c(n2)sc2cc(C(=O)NCCCN4CCCCCC4)ccc23)cc1 | SARS-CoV-2 | cytopathic effect | USA_WA1/2020 | round 2, 5-point |  | efficacy | 78.5%
CC[C@H](C)[C@H](NC(=O)[C@H](CC(C)C)NC(=O)[C@H](Cc1c[nH]c2ccccc12)NC(=O)[C@H](CCC(N)=O)NC(=O)[C@@H](NC(=O)[C@H](Cc1ccccc1)NC(=O)[C@H](C)NC(=O)[C@H](CCCCNC(=O)COCCOCCNC(=O)COCCOCCNC(=O)CC[C@H](NC(=O)CCCCCCCCCCCCCCCCCCC(=O)O)C(=O)O)NC(=O)[C@H](CCC(N)=O)NC(=O)[C@H](C)NC(=O)[C@@H](NC(=O)[C@H](CCCCN)NC(=O)[C@H](CC(=O)O)NC(=O)[C@H](CC(C)C)NC(=O)C(C)(C)NC(=O)[C@@H](NC(=O)[C@H](CO)NC(=O)[C@H](Cc1ccc(O)cc1)NC(=O)[C@H](CC(=O)O)NC(=O)[C@H](CO)NC(=O)[C@@H](NC(=O)[C@H](Cc1ccccc1)NC(=O)[C@@H](NC(=O)CNC(=O)[C@H](CCC(=O)O)NC(=O)C(C)(C)NC(=O)[C@@H](N)Cc1ccc(O)cc1)[C@@H](C)O)[C@@H](C)O)[C@@H](C)CC)[C@@H](C)CC)C(C)C)C(=O)N[C@@H](C)C(=O)NCC(=O)NCC(=O)N1CCC[C@H]1C(=O)N[C@@H](CO)C(=O)N[C@@H](CO)C(=O)NCC(=O)N[C@@H](C)C(=O)N1CCC[C@H]1C(=O)N1CCC[C@H]1C(=O)N1CCC[C@H]1C(=O)N[C@@H](CO)C(N)=O |  | refers to: treatment-emergent feeling hot | healthy subjects | 4.5 mg, multiple ascending dose |  | subjects with adverse event | 16.7%
QPLRKLCILHRNPGRCYQKIPAFYYNQKKKQCEGFTWSGCGGNSNRFKTIEECRRTCIRK (dendrotoxin I; ends and bridges not checked; cysteine pairing not given here; sequence looked up) | maxi-KCa channel, rat muscle | channel block, planar bilayer single-channel |  | concentration not given, nearly blocked state, added: BPTI |  | dwell time, double occupancy | ~1 s
CCOc1ccccc1CNCc1cccn1-c1nnc(N2CCN(c3ccccc3)CC2)s1 | SARS-CoV-2 | cytopathic effect, cell-based CPE | USA_WA1/2020 | round 1, 5-point dilution |  | AC50 | 3.16 µM

Molecule | target or system | test | test system | setting | scale | quantity | value
CCc1c(C(=O)C(N)=O)c2c(OCC(=O)O)cccc2n1Cc1ccccc1 |  | inhibitor | human platelet-poor plasma | 100 µM, added: snake venom |  | activated partial thromboplastin time | no inhibition
CCCCN(CCCC)CCCNC(=O)c1ccc2nc(N3CCCCC3)sc2c1 | SARS-CoV-2 | cytopathic effect | USA_WA1/2020 | round 2, 5-point |  | maximum response | 42.5%
Cc1cc(=O)c2ccccc2n1CC(=O)N1CCC(CCn2cccn2)CC1 | Lassa mammarenavirus | viral replication | Huh-7 | 10 µM, 72 h |  | remaining activity | 33%
CC(C)=CCC[C@]1(C)C=Cc2c(O)c3c(c(CC=C(C)C)c2O1)O[C@]12C(=C[C@@H]4C[C@H]1C(C)(C)O[C@@]2(C/C=C(/C)C(=O)O)C4=O)C3=O | Spike glycoprotein | binding, biolayer interferometry |  |  |  | Kd | 27.2 µM
CNC(=O)[C@@H](NC(=O)[C@H](CC(C)C)[C@H](O)C(=O)NO)C(C)(C)C | Daboia russelii venom proteases (SVMP) | protease activity, inhibitor | KA population | 0.001 µM, added: azocasein substrate | relative to: venom alone | remaining activity | 98% and 96.3% and 93%
O=C1Nc2ccc(Cl)cc2[C@@](C#CC2CC2)(C(F)(F)F)O1 | HIV-1 | viral replication, single-round infection | RT mutant E138K/M184I |  |  | EC50 | 0.0022 ± 0.0004 µM
CC(C)=CCC[C@](C)(O[C@@H]1O[C@H](CO)[C@@H](O)[C@H](O)[C@H]1O)[C@H]1CC[C@]2(C)[C@@H]1[C@H](O)C[C@@H]1[C@@]3(C)CC[C@H](O[C@@H]4O[C@H](CO)[C@@H](O)[C@H](O)[C@H]4O)C(C)(C)[C@@H]3CC[C@]12C | Spike glycoprotein | binding, BLI |  |  |  | Kd | 27.1 µM
Cc1cc(/C=C/C#N)cc(C)c1Nc1ccnc(Nc2ccc(C#N)cc2)n1 | HIV-1 | viral replication, single-round infection | RT mutant P236L |  |  | EC50 | 0.0002 µM
Cn1cnc(Cn2c(=O)[nH]/c(=N\c3cc4cn(C)nc4cc3Cl)n(Cc3cc(F)c(F)cc3F)c2=O)n1 |  |  | human, normal renal function | oral, 375 mg, decreased GFR TEAE, Moderate severity |  | patients with adverse event | 0%
FLCWHTNCYDYCIPY | human CD4 T cells | AIM | peptide |  |  | responding donors | 7%
COc1ccccc1C(=O)NC1CCCN(Cc2cccc(-c3ccc(C)c(Cl)c3)c2)C1 (stereo not shown) | SARS-CoV-2 | cytopathic effect | USA_WA1/2020 | retest, 8-point, duplicates |  | efficacy | 37.6%
Cc1cc(C(C)(C)CC(C)(C)C)ccc1OCCOCC[N+](C)(C)Cc1ccccc1 | HeLa | Ebola VLP entry |  |  |  | IC50 | 3.85 µM
NC(=O)CCNC(=O)c1ccccc1S | HIV-1 | viral replication | human PBMC, subtype G JV1083, CCR5-tropic clinical isolate |  |  | EC50 | 4.63 ± 0.6 µM
Cc1nc2n(n1)CC(=O)N[C@@H](C(C)C)CN(C(=O)c1ccc(F)cc1)CC(=O)N[C@@H](CC(C)C)c1nc(cs1)C(=O)N[C@H]2Cc1ccccc1 | Lassa mammarenavirus | viral replication | Huh-7 | 10 µM, 72 h |  | remaining activity | 68%
GSSGVVNPVMEPIYD | human CD4 T cells | AIM | peptide |  |  | responding donors | 7%
CN(C)c1ccc(-c2nc(-c3cccs3)c(-c3cccs3)[nH]2)cc1 | SARS-CoV-2 | cytopathic effect | USA_WA1/2020 | round 1, 5-point |  | efficacy | 45.2%
Cc1nc2n(n1)CC(=O)N[C@@H](C(C)C)CN(C(=O)c1n[nH]c(=O)[nH]1)CC(=O)N[C@@H](CC(C)C)c1nc(cs1)C(=O)N[C@H]2Cc1ccccc1 | Lassa mammarenavirus | viral replication | Huh-7 | 10 µM, 72 h |  | remaining activity | 107%
Cc1ccc(-c2cccc(CN3CCCC(NC(=O)c4c(C)noc4C)C3)c2)cc1Cl (stereo not shown) | SARS-CoV-2 | cytopathic effect, cell-based CPE | USA_WA1/2020 | round 1, 5-point dilution |  | AC50 | 11.2 µM
RLWLCWKCRSKNPLL | human CD4 T cells | AIM | peptide |  |  | responding donors | 7%
COc1ccccc1-c1ccc(CN2CCC(NC(=O)Cc3ccc(F)cc3)C2)cc1 (stereo not shown) | SARS-CoV-2 | cytopathic effect | USA_WA1/2020 | round 1, 5-point |  | efficacy | 99%
O=c1c(O)c(-c2ccc(O)c(O)c2)oc2cc(O)cc(O)c12 |  | viral replication | SARS-CoV-2 trVLP system | 100 µM |  | inhibition | > 90%

A few entries again:
Molecule | target or system | test | test system | setting | scale | quantity | value
EDFLEYHDVRVVLDF | human CD4 T cells | AIM | peptide |  |  | responding donors | 18%
C[C@H](NC(=O)Cc1cc(F)cc(F)c1)C(=O)N[C@H](C(=O)OC(C)(C)C)c1ccccc1 | rep main protease | reporter gene (Gaussia luciferase), inhibitor |  | 20 µM |  | inhibition | 1.84%
Cc1ccccc1C1(O)CCN(C(=O)c2cnn[nH]2)C1 (stereo not shown) | Lassa mammarenavirus | viral replication | Huh-7 | 10 µM, 72 h |  | remaining activity | 39%
COc1ccc2cc3[n+](cc2c1OC)CCc1cc2c(cc1-3)OCO2 | SARS-CoV-2 envelope protein |  | Vero C1008 | 10 µg/mL |  | inhibition | 50 ± 4.1%
